Experimental data gathered from unrelated publications.
Parts stem from different laboratories: compare values within a part only. Substitutions count along the parent as printed.

Set 1
Target: Histone acetyltransferase KAT6A, winged helix 2, GST fusion (KAT6A, Homo sapiens, UniProt Q92794, residues 85-181)
Technique: protein binding microarray
Molecule type: double-stranded DNA, one strand shown
Matrix: in vitro
Concentration: not given
Notes: 8-mer, flanks averaged, mean of 2 arrays, mostly near background
Baseline: not given
Direction: higher = stronger binding
Residues (chain): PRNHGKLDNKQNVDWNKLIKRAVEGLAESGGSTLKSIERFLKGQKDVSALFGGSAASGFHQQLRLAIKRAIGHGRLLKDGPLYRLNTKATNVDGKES
| Oligonucleotide | E-score |
| --- | --- |
| AGGGCTTA | -0.122 |
| ACCTGGCC | 0.0398 |
| AATAAAGA | 0.116 |
| AATTTAGC | -0.082 |
| AAATCGTT | -0.136 |
| GACAATCC | 0.0352 |

Set 2
Target: CCNE1, cyclin fold, Cln2 fusion (human)
Technique: yeast growth competition, sequencing
Matrix: yeast
Notes: weak parent motif
Baseline: not given
Direction: higher = stronger binding
Starting sequence: SLBP docking peptide (human); ARYKRKLLINDFG
| Change | normalised enrichment score |
| --- | --- |
| ARYNRKLLINDFG [K4N] | 0.82 |
| ARYKRKLLINNFG [D11N] | 0.228 |
| ARYKPKLLINDFG [R5P] | 0.5 |
| ARYKRKLLHNDFG [I9H] | 1.16 |
| AREKRKLLINDFG [Y3E] | 0.304 |
| AWYKRKLLINDFG [R2W] | 1.32 |
| IRYKRKLLINDFG [A1I] | 0.551 |
| ARYKRKLLINDFM [G13M] | 1.12 |
| ADYKRKLLINDFG [R2D] | 1.08 |

Set 3
Target: PABPC1L2, full length, GST fusion (mouse, UniProt A0ABA7IW68)
Technique: RNAcompete
Molecule type: RNA
Matrix: in vitro
Concentration: 20 nM
Notes: 7-mer, probes averaged, single round
Baseline: mean of 7-mers
Direction: higher = stronger binding
Target sequence (chain): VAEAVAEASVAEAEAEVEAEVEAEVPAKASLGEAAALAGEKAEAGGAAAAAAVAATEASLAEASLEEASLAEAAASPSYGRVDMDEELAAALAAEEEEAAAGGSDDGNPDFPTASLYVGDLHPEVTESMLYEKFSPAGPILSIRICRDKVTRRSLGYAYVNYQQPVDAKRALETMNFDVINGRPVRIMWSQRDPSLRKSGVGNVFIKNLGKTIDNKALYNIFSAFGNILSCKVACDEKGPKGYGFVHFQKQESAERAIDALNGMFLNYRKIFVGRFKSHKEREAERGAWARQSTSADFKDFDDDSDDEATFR
| Oligonucleotide | 7-mer Z-score |
| --- | --- |
| CCAGGGC | -0.186 |
| ACGCAUC | -0.157 |
| UACUCCU | -0.286 |
| CGAGCAC | -0.0428 |
| UAAUGCU | -0.191 |
| ACAGCUG | 0.0243 |
| CUAAGAU | -0.133 |

Mixed results
| Molecule | target | test | system | setting | how to read | measurement | result |
| --- | --- | --- | --- | --- | --- | --- | --- |
| PhoQ, residues 284 288 289 292 302 303 GASLAW | PhoP, residues 12 14 15 18 19 LHSVW (Escherichia coli, UniProt P23836) | Sort-seq, refers to: YFP reporter | E. coli | PhoQ-PhoP variant library, added: 10 µM Mg2+ | baseline: high Mg2+ state, higher = stronger signaling | fold induction | 3.6 |

Some of these lines once more (set 2):
| Change | normalised enrichment score |
| --- | --- |
| ARYNRKLLINDFG [K4N] | 0.82 |
| ARYKRKLLHNDFG [I9H] | 1.16 |
| IRYKRKLLINDFG [A1I] | 0.551 |
